Results pooled from the literature.
Every numbered part comes from another study and shows a few of its results, in no order.
Chain of UniProt P36897 (whole entry, looked up): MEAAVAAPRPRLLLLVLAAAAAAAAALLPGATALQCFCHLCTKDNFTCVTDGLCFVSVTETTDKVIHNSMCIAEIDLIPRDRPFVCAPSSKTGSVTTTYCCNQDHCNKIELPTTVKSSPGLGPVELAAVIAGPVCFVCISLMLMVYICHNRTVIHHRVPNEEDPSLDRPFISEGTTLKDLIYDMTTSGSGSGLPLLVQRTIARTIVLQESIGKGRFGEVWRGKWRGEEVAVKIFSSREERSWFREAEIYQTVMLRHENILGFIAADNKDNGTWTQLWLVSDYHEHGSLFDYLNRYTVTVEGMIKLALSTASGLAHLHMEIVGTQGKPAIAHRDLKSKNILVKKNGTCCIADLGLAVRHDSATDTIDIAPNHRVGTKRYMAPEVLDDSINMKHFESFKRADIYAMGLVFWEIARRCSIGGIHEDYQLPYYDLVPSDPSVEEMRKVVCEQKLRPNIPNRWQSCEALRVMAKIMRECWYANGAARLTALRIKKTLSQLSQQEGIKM
Chain of UniProt Q16539 (whole entry, looked up): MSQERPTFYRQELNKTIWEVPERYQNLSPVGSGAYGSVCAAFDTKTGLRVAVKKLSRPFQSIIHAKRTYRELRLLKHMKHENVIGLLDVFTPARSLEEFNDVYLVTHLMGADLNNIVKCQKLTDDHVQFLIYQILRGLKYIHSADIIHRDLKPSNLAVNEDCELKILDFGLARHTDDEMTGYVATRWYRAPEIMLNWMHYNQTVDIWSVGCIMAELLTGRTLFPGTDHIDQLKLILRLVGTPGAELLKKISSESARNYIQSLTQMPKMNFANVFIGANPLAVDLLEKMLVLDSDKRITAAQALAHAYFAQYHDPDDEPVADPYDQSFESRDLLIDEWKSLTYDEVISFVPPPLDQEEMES
Chain of UniProt Q96SB4 (whole entry, looked up): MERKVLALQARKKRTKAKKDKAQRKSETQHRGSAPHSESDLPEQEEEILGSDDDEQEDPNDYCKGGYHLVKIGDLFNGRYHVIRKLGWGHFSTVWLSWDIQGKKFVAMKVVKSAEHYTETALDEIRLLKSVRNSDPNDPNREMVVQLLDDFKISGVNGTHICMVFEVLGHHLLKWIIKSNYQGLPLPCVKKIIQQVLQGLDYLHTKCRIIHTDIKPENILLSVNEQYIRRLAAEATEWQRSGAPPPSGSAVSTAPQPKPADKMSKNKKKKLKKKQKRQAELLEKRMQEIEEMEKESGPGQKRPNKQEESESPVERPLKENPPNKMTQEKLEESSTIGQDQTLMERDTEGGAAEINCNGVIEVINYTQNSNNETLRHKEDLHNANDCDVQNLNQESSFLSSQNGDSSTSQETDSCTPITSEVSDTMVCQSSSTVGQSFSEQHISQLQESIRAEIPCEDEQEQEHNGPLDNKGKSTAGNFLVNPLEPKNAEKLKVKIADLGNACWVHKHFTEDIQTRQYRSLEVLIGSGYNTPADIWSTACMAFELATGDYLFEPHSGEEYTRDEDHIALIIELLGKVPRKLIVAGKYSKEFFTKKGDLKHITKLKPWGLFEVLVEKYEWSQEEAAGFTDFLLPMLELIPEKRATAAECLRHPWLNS
Chain of UniProt O14936 (whole entry, looked up): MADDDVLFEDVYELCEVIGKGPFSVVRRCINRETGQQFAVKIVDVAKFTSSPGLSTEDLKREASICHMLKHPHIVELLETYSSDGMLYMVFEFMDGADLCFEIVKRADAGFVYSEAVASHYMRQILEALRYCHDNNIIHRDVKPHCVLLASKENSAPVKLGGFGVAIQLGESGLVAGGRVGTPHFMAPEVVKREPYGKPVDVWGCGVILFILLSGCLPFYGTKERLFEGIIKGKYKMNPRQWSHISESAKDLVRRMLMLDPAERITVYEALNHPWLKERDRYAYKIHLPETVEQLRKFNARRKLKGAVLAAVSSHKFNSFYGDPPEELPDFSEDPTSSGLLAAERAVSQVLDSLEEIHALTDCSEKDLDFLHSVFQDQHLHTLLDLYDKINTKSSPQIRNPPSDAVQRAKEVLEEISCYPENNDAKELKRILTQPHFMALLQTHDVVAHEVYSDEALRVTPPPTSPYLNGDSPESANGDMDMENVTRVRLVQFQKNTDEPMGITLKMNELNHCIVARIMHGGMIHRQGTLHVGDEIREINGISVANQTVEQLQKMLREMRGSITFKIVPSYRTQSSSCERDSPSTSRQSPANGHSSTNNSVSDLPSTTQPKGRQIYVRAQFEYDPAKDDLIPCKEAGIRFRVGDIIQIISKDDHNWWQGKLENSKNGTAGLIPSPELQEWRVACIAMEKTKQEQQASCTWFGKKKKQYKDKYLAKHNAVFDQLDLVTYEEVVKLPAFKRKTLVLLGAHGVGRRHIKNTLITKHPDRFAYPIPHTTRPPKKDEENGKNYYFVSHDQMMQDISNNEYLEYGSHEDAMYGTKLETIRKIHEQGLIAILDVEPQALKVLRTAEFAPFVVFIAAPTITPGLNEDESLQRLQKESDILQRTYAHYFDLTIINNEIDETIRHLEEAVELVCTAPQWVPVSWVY
Chain of UniProt Q9UL54 (whole entry, looked up): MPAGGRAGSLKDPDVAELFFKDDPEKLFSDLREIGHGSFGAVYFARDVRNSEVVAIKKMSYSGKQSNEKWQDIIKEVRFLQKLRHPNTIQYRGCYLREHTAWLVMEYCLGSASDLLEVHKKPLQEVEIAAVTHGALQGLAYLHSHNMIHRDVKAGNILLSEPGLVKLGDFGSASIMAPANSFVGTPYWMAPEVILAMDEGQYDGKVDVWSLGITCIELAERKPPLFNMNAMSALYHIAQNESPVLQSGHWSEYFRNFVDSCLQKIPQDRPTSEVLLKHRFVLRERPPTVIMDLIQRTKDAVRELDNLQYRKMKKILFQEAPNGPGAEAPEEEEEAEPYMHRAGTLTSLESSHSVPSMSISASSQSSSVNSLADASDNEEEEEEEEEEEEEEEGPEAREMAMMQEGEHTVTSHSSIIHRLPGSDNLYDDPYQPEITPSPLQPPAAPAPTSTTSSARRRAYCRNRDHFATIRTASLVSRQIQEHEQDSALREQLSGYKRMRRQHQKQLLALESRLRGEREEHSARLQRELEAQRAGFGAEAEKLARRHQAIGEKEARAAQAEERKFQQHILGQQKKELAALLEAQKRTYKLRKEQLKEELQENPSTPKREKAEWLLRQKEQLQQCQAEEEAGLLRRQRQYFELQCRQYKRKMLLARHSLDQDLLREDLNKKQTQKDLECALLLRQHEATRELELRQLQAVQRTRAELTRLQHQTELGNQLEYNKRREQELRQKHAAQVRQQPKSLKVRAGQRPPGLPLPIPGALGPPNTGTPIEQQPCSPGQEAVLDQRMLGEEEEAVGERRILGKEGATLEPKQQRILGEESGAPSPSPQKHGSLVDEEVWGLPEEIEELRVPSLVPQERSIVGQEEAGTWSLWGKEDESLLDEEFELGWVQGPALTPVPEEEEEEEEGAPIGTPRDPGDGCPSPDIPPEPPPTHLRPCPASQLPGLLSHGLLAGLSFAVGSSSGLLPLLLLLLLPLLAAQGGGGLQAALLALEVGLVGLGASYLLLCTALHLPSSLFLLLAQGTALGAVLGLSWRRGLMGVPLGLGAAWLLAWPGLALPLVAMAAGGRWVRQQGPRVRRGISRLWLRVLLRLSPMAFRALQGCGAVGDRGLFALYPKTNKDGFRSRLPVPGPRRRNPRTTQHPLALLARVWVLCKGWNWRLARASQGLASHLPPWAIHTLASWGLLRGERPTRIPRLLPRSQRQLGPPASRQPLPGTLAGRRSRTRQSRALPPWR
Chain of UniProt P43403 (whole entry, looked up): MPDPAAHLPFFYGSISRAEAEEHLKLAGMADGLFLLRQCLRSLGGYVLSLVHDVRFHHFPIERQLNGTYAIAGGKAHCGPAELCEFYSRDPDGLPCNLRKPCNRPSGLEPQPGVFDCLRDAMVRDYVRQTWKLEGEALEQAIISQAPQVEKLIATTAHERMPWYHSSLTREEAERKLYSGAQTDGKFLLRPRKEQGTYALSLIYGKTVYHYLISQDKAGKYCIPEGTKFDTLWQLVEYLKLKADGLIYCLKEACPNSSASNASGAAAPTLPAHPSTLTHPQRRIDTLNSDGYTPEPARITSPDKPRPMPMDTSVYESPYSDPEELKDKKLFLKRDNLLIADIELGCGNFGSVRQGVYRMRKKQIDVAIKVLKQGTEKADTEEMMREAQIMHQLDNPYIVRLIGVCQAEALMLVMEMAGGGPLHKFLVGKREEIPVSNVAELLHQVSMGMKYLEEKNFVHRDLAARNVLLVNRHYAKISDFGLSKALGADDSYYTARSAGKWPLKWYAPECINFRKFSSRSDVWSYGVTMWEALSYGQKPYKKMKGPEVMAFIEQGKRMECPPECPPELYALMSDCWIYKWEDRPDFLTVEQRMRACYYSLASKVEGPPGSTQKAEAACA

Set 1 — effect on: enzyme activity; action: inhibitor; tested at: 0.5 µM; baseline: control
Target: Megakaryocyte-associated tyrosine-protein kinase (MATK, Homo sapiens, UniProt P42679)
Chain of UniProt P42679 (whole entry, looked up): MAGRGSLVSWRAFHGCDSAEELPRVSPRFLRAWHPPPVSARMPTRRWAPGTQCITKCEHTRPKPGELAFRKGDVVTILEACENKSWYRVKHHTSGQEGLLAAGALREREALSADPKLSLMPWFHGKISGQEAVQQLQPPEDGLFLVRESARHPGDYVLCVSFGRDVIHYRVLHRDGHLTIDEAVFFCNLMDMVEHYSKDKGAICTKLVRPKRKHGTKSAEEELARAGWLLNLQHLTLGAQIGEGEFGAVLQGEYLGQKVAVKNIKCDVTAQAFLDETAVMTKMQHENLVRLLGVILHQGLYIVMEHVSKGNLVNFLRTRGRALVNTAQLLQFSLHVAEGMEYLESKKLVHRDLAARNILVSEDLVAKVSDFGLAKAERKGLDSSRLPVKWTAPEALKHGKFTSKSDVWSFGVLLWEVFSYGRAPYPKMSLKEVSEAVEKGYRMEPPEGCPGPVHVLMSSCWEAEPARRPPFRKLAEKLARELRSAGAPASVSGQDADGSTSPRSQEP
For `CC(=O)c1ccc(N2CCOCC2)cc1O`, the remaining activity was 92.1%.
The remaining activity of `N#CC(=C(N)Sc1ccc(N)cc1)c1ccccc1C(F)(F)F` is reported as 90.7%.
With `CSc1nc(-c2ccnc(N[C@@H](C)c3ccccc3)c2)c(-c2ccc(F)cc2)[nH]1` (racemic) the remaining activity was 87%.
`CC#CC(=O)Nc1cc2c(Nc3ccc(F)c(Cl)c3)ncnc2cn1` has a remaining activity of 95.8%.
`O=C1Cc2c([nH]c3ccc([N+](=O)[O-])cc23)-c2ccccc2N1` has a remaining activity of 98.9%.
With `Nc1nccc(-c2c(-c3ccc(F)cc3)ncn2C2CCNCC2)n1` the remaining activity was 99.5%.
`CC[n+]1c(/C=C/N(C)c2ccccc2)n(-c2ccccc2)c2ccc(-c3nc4ccccc4s3)cc21` has a remaining activity of 96.4%.
`Nc1ncnc2c1cnn2-c1ccccc1` gave a remaining activity of 89.9%.
`Fc1ccc(-c2nc3n(c2-c2ccncc2)CCS3)cc1` has a remaining activity of 89.4%.
`COc1ccc(S(=O)(=O)N(CCO)c2ccccc2CN(C)CC=Cc2ccc(Cl)cc2)cc1` has a remaining activity of 101%.
`Cc1cncc2cccc(S(=O)(=O)N3CCCN(C(=O)CN)C[C@@H]3C)c12` has a remaining activity of 94.4%.
For `Cc1cc(Nc2nc(-c3ccccc3)nc3ccccc23)n[nH]1`, the remaining activity was 96.1%.
For `COc1cc(Nc2c(C#N)cnc3cc(OCCCN4CCN(C)CC4)c(OC)cc23)c(Cl)cc1Cl`, the remaining activity was 140%.
`NC(=O)c1ccc(N(C(N)=O)c2c(F)cccc2F)nc1-c1ccc(F)cc1F` gave a remaining activity of 77.6%.
For `Oc1ccc(Nc2nc(-c3ccc(Cl)cc3)cs2)cc1`, the remaining activity was 95.5%.
For `Nc1nc(Nc2ccc(S(N)(=O)=O)cc2)nn1C(=O)c1c(F)cccc1F`, the remaining activity was 104%.
The remaining activity of `O=C1NC(=O)C(c2c[nH]c3ccccc23)=C1c1c[nH]c2ccccc12` is reported as 91.1%.
The remaining activity of `CCCC(=O)Oc1ccc2[nH]c(C(=O)c3cc4ccccc4[nH]3)cc2c1` is reported as 93.4%.
With `Cc1ccc(NC2=CC(=O)c3sc(C)nc3C2=O)cc1` the remaining activity was 88.3%.
For `CCc1[nH]c(-c2ccc(OC)cc2)nc1-c1ccncc1`, the remaining activity was 94.1%.
`O=S(=O)(NCCNC/C=C/c1ccc(Br)cc1)c1cccc2cnccc12` gave a remaining activity of 96.1%.
`CC(C)(C)n1nc(Cc2cccc3ccccc23)c2c(N)ncnc21` has a remaining activity of 93%.

Set 2 — effect on: cell-free assay; method: competition with immobilised ligand; tested at: 1 µM
SMILES: CO[C@@H](C)c1c(Nc2ccc([C@H](N(C)C(=O)C3CCS(=O)(=O)CC3)C(F)(F)F)cc2)cnc2cc(Cl)nn12
MAPK4 (Homo sapiens, UniProt P31152) — remaining binding: 94%.
It gave 95% for remaining binding (CDKL5 (Homo sapiens, UniProt O76039)).
For EGFR (Homo sapiens, UniProt P00533, L858R/T790M): remaining binding read 80%.
It gave 83% for remaining binding (PIK3CG (Homo sapiens, UniProt P48736)).
It gave 92% for remaining binding (MET (Homo sapiens, UniProt P08581, M1250T)).
The remaining binding was 88% (MAPK14 (Homo sapiens, UniProt Q16539)).
The remaining binding was 88% (TAOK2 (Homo sapiens, UniProt Q9UL54)).
The remaining binding was 100% (CASK (Homo sapiens, UniProt O14936)).
It gave 77% for remaining binding (NEK9 (Homo sapiens, UniProt Q8TD19)).
RIOK1 (Homo sapiens, UniProt Q9BRS2) — remaining binding: 85%.
It gave 77% for remaining binding (COQ8B (Homo sapiens, UniProt Q96D53)).
The remaining binding was 100% (ZAP70 (Homo sapiens, UniProt P43403)).
SRPK1 (Homo sapiens, UniProt Q96SB4) — remaining binding: 96%.
It gave 94% for remaining binding (TGFBR1 (Homo sapiens, UniProt P36897)).

Set 3 — method: KINOMEscan; tested at: 10 µM; direction: lower = stronger binding
SMILES: COc1cc(C(=O)N2CCC(N3CCN(C)CC3)CC2)ccc1Nc1ncc2c(n1)N(C)c1ccccc1C(=O)N2C
It gave 100% for “binding (% of control)” (KIT).
It gave 100% for “binding (% of control)” (FLT3(ITD)).
The “binding (% of control)” was 89% (IKK-beta).
It gave 94% for “binding (% of control)” (JNK2).
For p38-alpha: “binding (% of control)” read 87%.
For IKK-alpha: “binding (% of control)” read 100%.
For QSK: “binding (% of control)” read 100%.
For DLK: “binding (% of control)” read 81%.
The “binding (% of control)” was 85% (ERK2).
It gave 15% for “binding (% of control)” (ABL1(F317I)-nonphosphorylated).
For ABL1(H396P)-phosphorylated: “binding (% of control)” read 100%.
It gave 84% for “binding (% of control)” (PRKR).
It gave 100% for “binding (% of control)” (MEK1).
It gave 100% for “binding (% of control)” (ABL1(Q252H)-nonphosphorylated).
The “binding (% of control)” was 100% (PFTAIRE2).
ABL1(F317L)-nonphosphorylated — “binding (% of control)”: 14%.

Set 4 — dose: dose not given; baseline: vehicle
Structure (SMILES): CC(=O)N[C@@H](Cc1c[nH]c2ccccc12)C(=O)N[C@@H](CCC(=O)C=[N+]=[N-])C(=O)OC(C)C
It gave 0.86 for “log2 fold change” (measured: sedoheptulose-7-phosphate; mouse, EL4 tumour-bearing, EL4 tumour).
metabolomics, measured: 5,6-dihydrouridine; mouse, EL4 tumour — “log2 fold change”: -0.752.
It gave -0.865 for “log2 fold change” (measured: orotate; mouse, EL4 tumour-bearing, EL4 tumour).
It gave 0.537 for “log2 fold change” (measured: valine; mouse, EL4 tumour-bearing, EL4 tumour).
For measured: salicylate; mouse, EL4 tumour-bearing, EL4 tumour: “log2 fold change” read 0.443.
The “log2 fold change” was 0.544 (measured: urate; mouse, EL4 tumour-bearing, EL4 tumour).
measured: pipecolate; mouse, EL4 tumour-bearing, EL4 tumour — “log2 fold change”: -0.512.
measured: malate; mouse, EL4 tumour-bearing, EL4 tumour — “log2 fold change”: -0.34.
For measured: sedoheptulose; mouse, EL4 tumour-bearing, EL4 tumour: “log2 fold change” read 0.252.
measured: CoA-glutathione*; mouse, EL4 tumour-bearing, EL4 tumour — “log2 fold change”: -1.29.
For measured: 1-methyladenosine; mouse, EL4 tumour-bearing, EL4 tumour: “log2 fold change” read -0.395.
The “log2 fold change” was -0.0834 (measured: N-acetyl-beta-alanine; mouse, EL4 tumour-bearing, EL4 tumour).
It gave -0.294 for “log2 fold change” (measured: ribose 1-phosphate; mouse, EL4 tumour-bearing, EL4 tumour).
measured: succinate; mouse, EL4 tumour-bearing, EL4 tumour — “log2 fold change”: -1.46.
It gave 0.612 for “log2 fold change” (measured: oxalate; mouse, EL4 tumour, tumour).
For measured: formiminoglutamate; mouse, EL4 tumour-bearing, EL4 tumour: “log2 fold change” read 0.132.
It gave 0.931 for “log2 fold change” (measured: 2-isopropylmalate; mouse, EL4 tumour-bearing, EL4 tumour).
measured: ergothioneine; mouse, EL4 tumour-bearing, EL4 tumour — “log2 fold change”: 0.926.
measured: histidine; mouse, EL4 tumour-bearing, EL4 tumour — “log2 fold change”: -0.0214.
For measured: allantoin; mouse, EL4 tumour-bearing, EL4 tumour: “log2 fold change” read -0.0989.

Some of these lines once more (set 2):
MAPK4 (Homo sapiens, UniProt P31152) — remaining binding: 94%.
It gave 95% for remaining binding (CDKL5 (Homo sapiens, UniProt O76039)).
For EGFR (Homo sapiens, UniProt P00533, L858R/T790M): remaining binding read 80%.
It gave 83% for remaining binding (PIK3CG (Homo sapiens, UniProt P48736)).
It gave 92% for remaining binding (MET (Homo sapiens, UniProt P08581, M1250T)).
The remaining binding was 88% (MAPK14 (Homo sapiens, UniProt Q16539)).
The remaining binding was 88% (TAOK2 (Homo sapiens, UniProt Q9UL54)).
The remaining binding was 100% (CASK (Homo sapiens, UniProt O14936)).
It gave 77% for remaining binding (NEK9 (Homo sapiens, UniProt Q8TD19)).
RIOK1 (Homo sapiens, UniProt Q9BRS2) — remaining binding: 85%.
It gave 77% for remaining binding (COQ8B (Homo sapiens, UniProt Q96D53)).
